{"data": "Measured values of several laboratories", "cell line": "MCF7", "note": "Each line is one published result; not all experiments were run side by side. “And” joins repeats or separate records; there may be more than shown. Numbers after ± are the reported error."}
{"Compound": "Oc1cc(O)cc(-c2cc3ccc(O)cc3o2)c1", "assay": "cell growth, MTT", "conditions": "12.5 µg/mL, 48 h", "measurement": "cell survival", "value": "75.3 ± 0.82%"}
{"Compound": "Cn1cncc1C1=CN(c2ncnc3[nH]cnc23)CCS1", "measurement": "CC50", "value": "> 200 µM"}
{"Compound": "CC(C)=CCc1c(O)cc(O)cc1-c1cc2ccc(O)c(CC=C(C)C)c2o1", "assay": "cell growth, MTT", "conditions": "1.8 µg/mL, 48 h", "measurement": "cell survival", "value": "94.14 ± 0.76%"}
{"Compound": "C/C1=C/C(=O)O[C@@H]2C[C@@H](CC[C@H](C)/C=C\\C=C\\CC1)O[C@@](O)([C@@H]1CSC(=O)N1CO)C2", "conditions": "concentration not given", "scale": "reference: 1", "measurement": "antiproliferative activity fold increase", "value": "4 fold"}
{"Compound": "CC1(C(=O)Nc2ccc(O)c(Cl)c2Cl)CCCCC1", "assay": "qRT-PCR", "conditions": "concentration not given, 4 h", "measurement": "basal RARβ2 mRNA level", "value": "decreased"}
{"Compound": "CC(C)N1CCC(NC2CCN(c3cccc(-c4cc5cc(F)ccc5[nH]4)c3)CC2)CC1", "measurement": "GI50", "value": "1.39 µM"}
{"Compound": "C[C@H]1[C@H](C)CC[C@]2(C(=O)O)CC[C@]3(C)C(=CC[C@@H]4[C@@]5(C)CC[C@H](O)C(C)(C)[C@@H]5CC[C@]43C)[C@H]12", "assay": "cell growth, MTT", "conditions": "50 µg/mL, 48 h", "measurement": "cell survival", "value": "33.98 ± 0.16%"}
{"Compound": "CC(=NNC(=O)c1cccc(C)c1)c1ccc(NC(=O)Cn2c(=O)c3c(ncn3C)n(C)c2=O)cc1", "assay": "qRT-PCR, refers to: IL-2", "conditions": "4.85 µM, 24 h", "scale": "reference: untreated", "measurement": "mRNA level", "value": "0.42 fold change"}
{"Compound": "O=C1CCCCC1=C1Sc2nc3ccc(S(=O)(=O)N4CCCC4)cc3nc2S1", "assay": "qRT-PCR, refers to: p53", "conditions": "concentration not given, unit not given", "scale": "reference: untreated", "measurement": "mRNA level", "value": 4.98}
{"Compound": "COc1cc(CCC[P+](c2ccccc2)(c2ccccc2)c2ccccc2)c(OC)c2c1OCO2.[I-]", "assay": "SRB", "measurement": "LC50", "value": "> -4 log M"}
{"Compound": "C#Cc1cccc(Nc2ncnc3cc(OCCOC)c(OCCOC)cc23)c1", "assay": "MTT", "measurement": "sublethal dose", "value": "5 µM"}
{"Compound": "C[C@]12CC[C@H](O)C[C@H]1CC[C@@H]1[C@@H]2CC[C@]2(C)[C@@H](c3ccc(=O)oc3)CC[C@]12O", "assay": "RT-qPCR, refers to: GREB1", "conditions": "20 nM, 48 h, unit not given, with: estradiol", "scale": "reference: untreated", "measurement": "mRNA level", "value": "1.28 and 2.2 and 1.37"}
{"Compound": "COc1c(CCC[P+](c2ccccc2)(c2ccccc2)c2ccccc2)cc2c(c1OC)OCO2.[I-]", "assay": "SRB", "measurement": "GI50", "value": "-5.95 log M"}
{"Compound": "COc1cccc2c1C(=O)c1c(O)c3c(c(O)c1C2=O)C[C@@](O)(C(=O)CO)C[C@@H]3O[C@H]1C[C@H](N)[C@H](O)[C@H](C)O1", "assay": "sulforhodamine B", "conditions": "10 µg/mL, 48 h", "scale": "negative means cell kill", "measurement": "growth percent", "value": "-81.3%"}
{"Compound": "COc1cc(O)ccc1C(C)=O", "conditions": "72 h", "measurement": "IC50", "value": "64 to 200 µM"}
{"Compound": "COc1ccc(-n2nc(C(C)=O)s/c2=N\\N=C(/C)c2ccc(NC(C)=O)cc2)cc1", "conditions": "0.156 µM", "measurement": "toxicity", "value": "80.7%"}
{"Compound": "Oc1cccc2cccnc12", "conditions": "concentration not given, 72 h", "measurement": "IC50", "value": "> 200 µM"}
{"Compound": "N.N.[Cl][Pt][Cl]", "assay": "cell viability", "conditions": "48 h, light irradiation 2.5 min", "measurement": "IC50", "value": "23.4 ± 0.58 µM"}
{"note": "A few entries again:"}
{"Compound": "COc1cc(O)ccc1C(C)=O", "conditions": "72 h", "measurement": "IC50", "value": "64 to 200 µM"}
